Assay results collected from several papers.
Numbered parts are unrelated; each lists some results of a single study.
UniProt Q16512, sequence (whole entry, looked up): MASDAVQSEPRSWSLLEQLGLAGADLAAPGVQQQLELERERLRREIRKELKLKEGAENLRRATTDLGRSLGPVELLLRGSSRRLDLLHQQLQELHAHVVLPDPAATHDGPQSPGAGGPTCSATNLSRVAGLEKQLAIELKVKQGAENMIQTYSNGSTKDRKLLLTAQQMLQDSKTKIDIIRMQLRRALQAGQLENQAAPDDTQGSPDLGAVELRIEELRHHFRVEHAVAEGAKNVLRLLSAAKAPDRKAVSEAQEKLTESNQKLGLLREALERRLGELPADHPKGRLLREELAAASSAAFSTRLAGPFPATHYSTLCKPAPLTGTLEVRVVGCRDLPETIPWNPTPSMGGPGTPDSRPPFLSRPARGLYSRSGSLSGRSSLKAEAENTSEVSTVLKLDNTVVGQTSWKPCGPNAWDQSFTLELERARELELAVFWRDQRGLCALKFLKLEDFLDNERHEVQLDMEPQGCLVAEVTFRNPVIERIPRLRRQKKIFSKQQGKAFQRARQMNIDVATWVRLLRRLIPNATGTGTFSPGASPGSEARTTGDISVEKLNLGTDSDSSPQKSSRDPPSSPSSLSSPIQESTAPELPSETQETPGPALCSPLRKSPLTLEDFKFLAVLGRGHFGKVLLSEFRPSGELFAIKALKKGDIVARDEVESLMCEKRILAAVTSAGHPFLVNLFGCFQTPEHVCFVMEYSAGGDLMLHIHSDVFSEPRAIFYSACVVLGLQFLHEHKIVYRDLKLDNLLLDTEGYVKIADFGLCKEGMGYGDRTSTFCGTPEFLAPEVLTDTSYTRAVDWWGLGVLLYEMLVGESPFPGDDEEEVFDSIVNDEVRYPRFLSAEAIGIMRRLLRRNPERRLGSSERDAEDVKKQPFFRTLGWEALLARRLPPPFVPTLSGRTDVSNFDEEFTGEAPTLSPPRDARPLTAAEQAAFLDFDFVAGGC
UniProt Q9HAZ1, sequence (whole entry, looked up): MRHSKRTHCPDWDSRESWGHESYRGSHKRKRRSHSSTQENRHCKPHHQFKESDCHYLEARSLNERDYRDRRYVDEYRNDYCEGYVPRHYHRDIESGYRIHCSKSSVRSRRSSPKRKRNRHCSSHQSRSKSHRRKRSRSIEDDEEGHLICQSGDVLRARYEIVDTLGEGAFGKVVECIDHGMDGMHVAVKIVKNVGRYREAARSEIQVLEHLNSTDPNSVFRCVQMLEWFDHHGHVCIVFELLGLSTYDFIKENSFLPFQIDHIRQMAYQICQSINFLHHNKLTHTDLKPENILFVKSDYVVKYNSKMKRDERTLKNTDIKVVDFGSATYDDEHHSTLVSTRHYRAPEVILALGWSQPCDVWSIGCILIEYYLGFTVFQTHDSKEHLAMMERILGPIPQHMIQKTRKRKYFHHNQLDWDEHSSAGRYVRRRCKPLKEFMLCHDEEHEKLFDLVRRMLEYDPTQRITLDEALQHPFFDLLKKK
UniProt Q08881, sequence (whole entry, looked up): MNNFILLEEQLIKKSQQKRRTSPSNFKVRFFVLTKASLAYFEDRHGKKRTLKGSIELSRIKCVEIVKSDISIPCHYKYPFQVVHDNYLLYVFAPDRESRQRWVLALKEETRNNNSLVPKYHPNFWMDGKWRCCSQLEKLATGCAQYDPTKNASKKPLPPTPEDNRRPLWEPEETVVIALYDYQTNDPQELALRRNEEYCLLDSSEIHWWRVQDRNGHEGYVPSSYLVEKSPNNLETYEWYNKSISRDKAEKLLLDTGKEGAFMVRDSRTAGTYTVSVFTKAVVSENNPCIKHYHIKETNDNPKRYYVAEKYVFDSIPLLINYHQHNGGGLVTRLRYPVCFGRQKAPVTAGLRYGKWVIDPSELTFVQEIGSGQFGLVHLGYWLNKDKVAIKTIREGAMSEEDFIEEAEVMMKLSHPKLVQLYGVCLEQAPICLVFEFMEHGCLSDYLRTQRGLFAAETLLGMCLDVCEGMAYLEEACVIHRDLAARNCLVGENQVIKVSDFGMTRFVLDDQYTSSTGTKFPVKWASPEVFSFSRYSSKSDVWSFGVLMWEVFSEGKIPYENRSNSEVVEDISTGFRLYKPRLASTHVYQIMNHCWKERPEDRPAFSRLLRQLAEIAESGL
UniProt O00750, sequence (whole entry, looked up): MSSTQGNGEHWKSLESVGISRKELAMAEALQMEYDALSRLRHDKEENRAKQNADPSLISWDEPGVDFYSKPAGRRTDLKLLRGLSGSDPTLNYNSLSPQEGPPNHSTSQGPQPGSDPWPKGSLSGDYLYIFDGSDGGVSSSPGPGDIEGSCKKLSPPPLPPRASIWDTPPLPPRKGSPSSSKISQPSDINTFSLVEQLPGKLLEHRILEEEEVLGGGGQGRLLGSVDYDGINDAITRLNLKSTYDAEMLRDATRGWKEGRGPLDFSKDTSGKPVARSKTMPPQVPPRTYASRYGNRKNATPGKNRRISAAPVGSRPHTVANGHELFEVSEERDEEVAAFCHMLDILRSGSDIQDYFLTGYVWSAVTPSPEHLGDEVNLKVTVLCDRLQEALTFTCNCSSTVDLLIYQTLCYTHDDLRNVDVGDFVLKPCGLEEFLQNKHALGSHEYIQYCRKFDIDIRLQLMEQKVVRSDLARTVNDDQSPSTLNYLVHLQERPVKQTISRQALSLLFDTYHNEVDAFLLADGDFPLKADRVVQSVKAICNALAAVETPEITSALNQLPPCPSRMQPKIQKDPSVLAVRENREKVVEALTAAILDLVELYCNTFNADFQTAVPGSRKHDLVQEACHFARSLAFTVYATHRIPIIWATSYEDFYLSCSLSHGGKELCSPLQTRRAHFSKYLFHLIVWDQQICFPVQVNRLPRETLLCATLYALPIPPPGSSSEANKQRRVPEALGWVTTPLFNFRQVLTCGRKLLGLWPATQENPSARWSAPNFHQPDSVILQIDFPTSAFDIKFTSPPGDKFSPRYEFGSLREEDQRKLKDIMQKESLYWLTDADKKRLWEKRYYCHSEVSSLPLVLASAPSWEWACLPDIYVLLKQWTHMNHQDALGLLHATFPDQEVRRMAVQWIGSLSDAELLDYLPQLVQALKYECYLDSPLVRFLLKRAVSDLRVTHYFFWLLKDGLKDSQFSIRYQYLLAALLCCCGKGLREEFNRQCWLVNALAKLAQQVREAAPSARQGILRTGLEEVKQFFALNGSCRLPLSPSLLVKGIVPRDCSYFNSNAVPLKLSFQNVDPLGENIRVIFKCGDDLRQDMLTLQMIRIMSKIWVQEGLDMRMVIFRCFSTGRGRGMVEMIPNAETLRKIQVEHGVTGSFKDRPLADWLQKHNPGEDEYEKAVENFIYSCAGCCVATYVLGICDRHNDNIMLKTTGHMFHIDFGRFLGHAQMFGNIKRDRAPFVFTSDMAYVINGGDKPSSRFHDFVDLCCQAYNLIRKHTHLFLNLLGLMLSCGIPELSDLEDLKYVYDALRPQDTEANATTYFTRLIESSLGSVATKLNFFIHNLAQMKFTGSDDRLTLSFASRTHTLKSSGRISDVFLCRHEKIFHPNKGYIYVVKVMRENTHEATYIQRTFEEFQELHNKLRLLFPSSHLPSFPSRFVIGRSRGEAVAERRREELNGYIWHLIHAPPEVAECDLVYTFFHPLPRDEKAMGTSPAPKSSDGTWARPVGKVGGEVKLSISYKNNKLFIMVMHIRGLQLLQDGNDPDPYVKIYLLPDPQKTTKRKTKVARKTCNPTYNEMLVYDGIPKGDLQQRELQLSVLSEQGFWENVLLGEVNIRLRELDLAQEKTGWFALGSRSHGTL
UniProt P53667, sequence (whole entry, looked up): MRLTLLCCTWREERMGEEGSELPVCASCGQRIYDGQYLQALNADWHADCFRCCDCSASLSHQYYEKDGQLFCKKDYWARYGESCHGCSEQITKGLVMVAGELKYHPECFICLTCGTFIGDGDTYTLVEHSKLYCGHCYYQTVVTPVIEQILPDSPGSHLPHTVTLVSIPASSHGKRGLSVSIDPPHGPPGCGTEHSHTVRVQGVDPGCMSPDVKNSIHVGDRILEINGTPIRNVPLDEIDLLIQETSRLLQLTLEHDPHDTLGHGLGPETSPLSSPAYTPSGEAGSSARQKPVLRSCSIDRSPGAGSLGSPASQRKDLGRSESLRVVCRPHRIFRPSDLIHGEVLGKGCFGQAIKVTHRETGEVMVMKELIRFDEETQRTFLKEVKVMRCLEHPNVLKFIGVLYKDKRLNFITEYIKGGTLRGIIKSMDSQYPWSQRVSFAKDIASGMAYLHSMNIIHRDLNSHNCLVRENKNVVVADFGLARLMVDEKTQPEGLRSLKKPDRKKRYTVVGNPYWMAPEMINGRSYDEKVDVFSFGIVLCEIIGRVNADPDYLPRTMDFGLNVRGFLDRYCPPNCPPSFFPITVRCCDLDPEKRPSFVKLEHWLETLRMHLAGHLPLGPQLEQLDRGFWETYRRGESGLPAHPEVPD
UniProt P31749, sequence (whole entry, looked up): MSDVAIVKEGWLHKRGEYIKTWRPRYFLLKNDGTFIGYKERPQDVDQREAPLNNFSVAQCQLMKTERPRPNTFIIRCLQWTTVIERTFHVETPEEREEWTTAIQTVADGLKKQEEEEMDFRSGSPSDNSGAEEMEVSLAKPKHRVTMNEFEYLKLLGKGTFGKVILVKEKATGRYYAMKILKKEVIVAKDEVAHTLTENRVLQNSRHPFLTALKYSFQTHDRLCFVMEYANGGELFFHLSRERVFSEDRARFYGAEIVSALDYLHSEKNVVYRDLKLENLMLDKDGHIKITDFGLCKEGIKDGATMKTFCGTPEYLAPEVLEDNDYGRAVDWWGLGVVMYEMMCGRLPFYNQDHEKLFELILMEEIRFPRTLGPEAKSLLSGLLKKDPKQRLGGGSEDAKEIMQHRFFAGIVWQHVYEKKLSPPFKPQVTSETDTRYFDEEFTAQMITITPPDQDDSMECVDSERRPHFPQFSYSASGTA

Set 1
Structure (SMILES): O=C1Cc2c([nH]c3ccc([N+](=O)[O-])cc23)-c2ccccc2N1
Read-out: enzyme activity
Action: inhibitor
Tested at: 0.5 µM
Relative to: control
| target | remaining activity [%] |
| --- | --- |
| ALK tyrosine kinase receptor (ALK, Homo sapiens, UniProt Q9UM73) | 94.2 |
| Homeodomain-interacting protein kinase 1 (HIPK1, Homo sapiens, UniProt Q86Z02) | 98.5 |
| Tyrosine-protein kinase Fer (FER, Homo sapiens, UniProt P16591) | 75.1 |
| LIM domain kinase 1 (LIMK1, Homo sapiens, UniProt P53667) | 94.3 |
| PAS domain-containing serine/threonine-protein kinase (PASK, Homo sapiens, UniProt Q96RG2) | 86.9 |
| RAC-alpha serine/threonine-protein kinase (AKT1, Homo sapiens, UniProt P31749) | 107 |
| Serine/threonine-protein kinase Nek11 (NEK11, Homo sapiens, UniProt Q8NG66) | 95.4 |
| Tyrosine-protein kinase ITK/TSK (ITK, Homo sapiens, UniProt Q08881) | 97.1 |
| Cyclin-dependent kinase 3, with cyclin E (CDK3, Homo sapiens, UniProt Q00526) | 56.8 |
| Serine/threonine-protein kinase N1 (PKN1, Homo sapiens, UniProt Q16512) | 88.2 |
| MAP/microtubule affinity-regulating kinase 3 (MARK3, Homo sapiens, UniProt P27448) | 67.7 |

Set 2
SMILES: CSc1cccnc1N1CCN(Cc2nc3ccccc3[nH]2)CC1
Read-out: cell-free assay
Method: competition with immobilised ligand
Tested at: 1 µM
| target | remaining binding |
| --- | --- |
| Serine/threonine-protein kinase 3 (STK3, Homo sapiens, UniProt Q13188) | 87% |
| Ephrin type-A receptor 5 (EPHA5, Homo sapiens, UniProt P54756) | 100% |
| Phosphatidylinositol 4,5-bisphosphate 3-kinase catalytic subunit alpha isoform (PIK3CA, Homo sapiens, UniProt P42336, H1047Y) | 100% |
| Tyrosine-protein kinase ABL1, phosphorylated (ABL1, Homo sapiens, UniProt P00519, M351T) | 94% |
| Tyrosine-protein kinase ABL1, non-phosphorylated (ABL1, Homo sapiens, UniProt P00519) | 70% |
| Homeodomain-interacting protein kinase 2 (HIPK2, Homo sapiens, UniProt Q9H2X6) | 62% |
| SRSF protein kinase 2 (SRPK2, Homo sapiens, UniProt P78362) | 59% |
| Dual specificity protein kinase CLK4 (CLK4, Homo sapiens, UniProt Q9HAZ1) | 100% |
| cGMP-dependent protein kinase 1 (PRKG1, Homo sapiens, UniProt Q13976) | 100% |
| Ribosomal protein S6 kinase alpha-3, N-terminal kinase domain (RPS6KA3, Homo sapiens, UniProt P51812) | 83% |
| Non-receptor tyrosine-protein kinase TNK1 (TNK1, Homo sapiens, UniProt Q13470) | 84% |
| Receptor-interacting serine/threonine-protein kinase 1 (RIPK1, Homo sapiens, UniProt Q13546) | 100% |
| Mast/stem cell growth factor receptor Kit (KIT, Homo sapiens, UniProt P10721, L576P) | 92% |
| Phosphatidylinositol 4-phosphate 3-kinase C2 domain-containing subunit beta (PIK3C2B, Homo sapiens, UniProt O00750) | 94% |
| Serine/threonine-protein kinase 38 (STK38, Homo sapiens, UniProt Q15208) | 88% |
| Serine/threonine-protein kinase BRSK1 (BRSK1, Homo sapiens, UniProt Q8TDC3) | 100% |
| Epithelial discoidin domain-containing receptor 1 (DDR1, Homo sapiens, UniProt Q08345) | 100% |
| Epidermal growth factor receptor (EGFR, Homo sapiens, UniProt P00533, G719S) | 98% |

Set 3
Structure (SMILES): CC(=O)N[C@@H](Cc1c[nH]c2ccccc12)C(=O)N[C@@H](CCC(=O)C=[N+]=[N-])C(=O)OC(C)C
Medium: EL4 tumour
Dose: dose not given
Relative to: vehicle
| measured | host | log2 fold change |
| --- | --- | --- |
| guanosine | mouse, EL4 tumour-bearing | -0.536 |
| gluconate | mouse, EL4 tumour-bearing | 0.9 |
| formiminoglutamate | mouse, EL4 tumour-bearing | 0.132 |
| 3-methoxytyrosine | mouse, EL4 tumour-bearing | -0.824 |
| N-acetylmethionine sulfoxide | mouse, EL4 tumour-bearing | 0.773 |
| cis/trans aconitate | Mus musculus | -0.446 |
| sedoheptulose | mouse, EL4 tumour-bearing | 0.252 |
| imidazole propionate | Mus musculus | -0.941 |
| 2'-deoxyinosine | mouse, EL4 tumour-bearing | -0.0471 |

Set 4
Organism: Plasmodium berghei
Action: inhibitor
Cell line: Huh-7
Strain: GFP-expressing sporozoites, liver stage
Tested at: 10 µM
Time: 24 h
Relative to: untreated control
| SMILES | infection rate [%] |
| --- | --- |
| O=C1c2ccccc2C(=O)C1c1ccc(Br)cc1 | 87.8 |
| CC(=O)OCC(=O)[C@@]1(O)[C@H](C)C[C@H]2[C@@H]3CCC4=CC(=O)C=C[C@]4(C)[C@@]3(F)[C@@H](O)C[C@@]21C | 102 |
| O=C1c2cccc(O)c2C(=O)c2c(O)cccc21 | 104 |
| C[N+](C)(C)CCOC(N)=O | 104 |
| Cc1c2oc3c(C)ccc(C(=O)N[C@@H]4C(=O)N[C@H](C(C)C)C(=O)N5CCC[C@H]5C(=O)N(C)CC(=O)N(C)[C@@H](C(C)C)C(=O)O[C@@H]4C)c3nc-2c(C(=O)N[C@@H]2C(=O)N[C@H](C(C)C)C(=O)N3CCC[C@H]3C(=O)N(C)CC(=O)N(C)[C@@H](C(C)C)C(=O)O[C@@H]2C)c(N)c1=O | 1.2 |
| O=C(Cn1ccnc1[N+](=O)[O-])NCCO | 93.7 |
| CC[C@@H](CO)NCCN[C@@H](CC)CO | 111 |

For quick reference, copied from above (set 4):
| SMILES | infection rate [%] |
| --- | --- |
| CC(=O)OCC(=O)[C@@]1(O)[C@H](C)C[C@H]2[C@@H]3CCC4=CC(=O)C=C[C@]4(C)[C@@]3(F)[C@@H](O)C[C@@]21C | 102 |
| O=C1c2cccc(O)c2C(=O)c2c(O)cccc21 | 104 |
| C[N+](C)(C)CCOC(N)=O | 104 |
| Cc1c2oc3c(C)ccc(C(=O)N[C@@H]4C(=O)N[C@H](C(C)C)C(=O)N5CCC[C@H]5C(=O)N(C)CC(=O)N(C)[C@@H](C(C)C)C(=O)O[C@@H]4C)c3nc-2c(C(=O)N[C@@H]2C(=O)N[C@H](C(C)C)C(=O)N3CCC[C@H]3C(=O)N(C)CC(=O)N(C)[C@@H](C(C)C)C(=O)O[C@@H]2C)c(N)c1=O | 1.2 |
| O=C(Cn1ccnc1[N+](=O)[O-])NCCO | 93.7 |
| CC[C@@H](CO)NCCN[C@@H](CC)CO | 111 |
